Measured values pooled from the literature.
Each numbered part is a random draw from the data of one study; scales do not carry over between parts. Positions count from the first letter of the parent shown.

Study 1
Target: CCND3, cyclin fold, Cln2 fusion (human)
Method: yeast growth competition, sequencing
Medium: yeast
Notes: weak parent motif
Reference: not given
Reading: higher = stronger binding
Starting sequence: KIF20B docking peptide (human); KRAKRKLYTSEIS; partner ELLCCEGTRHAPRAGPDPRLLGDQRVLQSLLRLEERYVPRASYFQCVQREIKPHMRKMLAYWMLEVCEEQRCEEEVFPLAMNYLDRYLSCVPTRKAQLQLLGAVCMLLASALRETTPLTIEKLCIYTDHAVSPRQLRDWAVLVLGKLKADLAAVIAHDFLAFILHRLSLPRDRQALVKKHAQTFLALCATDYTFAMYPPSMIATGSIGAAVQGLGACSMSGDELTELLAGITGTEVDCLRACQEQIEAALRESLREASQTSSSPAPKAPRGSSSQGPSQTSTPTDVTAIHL
| Change | normalised enrichment score |
| --- | --- |
| K6A | -0.0422 |
| S10A | -0.235 |
| L7A | 0.484 |
| E11A | 0.197 |
| S13A | 0.436 |
| K1A | 0.402 |

Study 2
Target: Sal-like protein 4, full length isoform A (SALL4, Homo sapiens, UniProt Q9UJQ4, residues 1-1053)
Sequence of UniProt Q9UJQ4 (whole entry, looked up): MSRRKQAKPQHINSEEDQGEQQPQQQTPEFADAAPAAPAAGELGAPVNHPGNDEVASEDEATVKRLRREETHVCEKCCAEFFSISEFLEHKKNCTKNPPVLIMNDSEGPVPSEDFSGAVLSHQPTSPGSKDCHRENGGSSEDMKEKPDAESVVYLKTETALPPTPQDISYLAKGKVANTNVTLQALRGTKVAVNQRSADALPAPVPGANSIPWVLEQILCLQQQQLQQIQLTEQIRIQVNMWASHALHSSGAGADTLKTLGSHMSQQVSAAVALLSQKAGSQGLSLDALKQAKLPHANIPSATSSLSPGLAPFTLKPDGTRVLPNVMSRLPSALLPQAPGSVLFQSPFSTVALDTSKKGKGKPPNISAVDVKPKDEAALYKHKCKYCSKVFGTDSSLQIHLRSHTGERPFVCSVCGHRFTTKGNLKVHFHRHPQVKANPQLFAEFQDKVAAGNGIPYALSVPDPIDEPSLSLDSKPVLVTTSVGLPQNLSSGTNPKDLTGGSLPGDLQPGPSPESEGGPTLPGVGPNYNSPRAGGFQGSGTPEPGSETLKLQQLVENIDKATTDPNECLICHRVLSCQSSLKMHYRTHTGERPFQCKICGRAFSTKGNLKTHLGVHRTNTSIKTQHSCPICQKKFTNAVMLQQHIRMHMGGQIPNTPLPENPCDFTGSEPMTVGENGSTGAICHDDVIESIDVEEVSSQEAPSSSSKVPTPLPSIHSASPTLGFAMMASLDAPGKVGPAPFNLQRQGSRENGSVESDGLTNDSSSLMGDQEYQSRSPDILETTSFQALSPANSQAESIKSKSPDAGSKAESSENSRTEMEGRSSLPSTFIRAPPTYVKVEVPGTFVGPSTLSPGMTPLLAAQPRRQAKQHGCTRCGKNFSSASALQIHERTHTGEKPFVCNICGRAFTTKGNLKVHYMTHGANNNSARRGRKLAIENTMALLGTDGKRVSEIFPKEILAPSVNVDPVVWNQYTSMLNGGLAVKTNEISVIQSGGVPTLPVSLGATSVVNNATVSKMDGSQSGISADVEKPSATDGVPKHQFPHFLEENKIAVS
Method: universal PBM
Molecule type: double-stranded DNA, one strand shown
Medium: in vitro
Tested at: 600 nM
Notes: 8-mer, flanks averaged, mean of replicates
Reading: higher = stronger binding
| Sequence | E-score |
| --- | --- |
| ACTGGATC | -0.0904 |
| AAACGCAC | 0.0415 |
| CACCCCTC | -0.349 |
| GCCATAAA | 0.195 |
| GCGTTTAC | -0.136 |
| CTTACACA | 0.0213 |
| TATCAGAA | 0.156 |
| AGTTACTG | 0.0471 |
| AAATGAGC | 0.144 |
| CATGAGCG | -0.181 |
| GTGCACAA | -0.0472 |
| ATGAGCCC | -0.149 |
| CGCCAGTA | -0.216 |
| CACGACTC | -0.081 |
| CGACATCA | -0.0243 |
| AGCCCCAC | -0.318 |
| GACAGAGA | 0.0647 |
| CTGTCCAA | 0.0746 |
| CAAGCACC | -0.183 |
| CATAAGAC | 0.253 |
| GGGCTTGA | -0.278 |
| CTGATGAA | 0.116 |
| CTACCCTC | -0.0905 |
| GGCGGCGA | -0.327 |
| ACTGGCTC | -0.245 |

Study 3
Target: Histone acetyltransferase KAT6A, winged helix 2, GST fusion (KAT6A, Homo sapiens, UniProt Q92794, residues 85-181)
Method: protein binding microarray
Molecule type: double-stranded DNA, one strand shown
Medium: in vitro
Tested at: not given
Notes: 8-mer, flanks averaged, mean of 2 arrays, mostly near background
Reference: not given
Reading: higher = stronger binding
Construct (chain): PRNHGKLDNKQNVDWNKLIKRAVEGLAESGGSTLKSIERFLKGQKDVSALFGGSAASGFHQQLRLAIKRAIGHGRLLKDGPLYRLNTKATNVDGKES
| Sequence | E-score |
| --- | --- |
| CCGCTCCA | 0.0445 |
| ACGGGTAG | -0.00286 |
| AAGCATTG | -0.0691 |
| AATAAACG | 0.00329 |
| ATGCTCGA | 0.0727 |
| CTCCTACC | -0.0169 |
| CTACACTC | -0.142 |
| TAAGTGAA | -0.0163 |
| CGTCTATC | -0.0776 |
| ATTCCGAC | 0.111 |
| CGACACAA | -0.0154 |
| CGCTACGC | 0.116 |
| TAACACGA | 0.0891 |
| GGCAGGAA | 0.057 |
| AAGCATAC | 0.101 |
| ATTAGATC | 0.0437 |
| CCAGCGTA | 0.115 |
| GTGTCCGA | -0.0335 |
| GCTCTAAC | -0.0787 |
| ATATACAG | -0.0139 |
| GATCAACC | -0.154 |
| ATCTAAAG | 0.1 |
| CCTCCCTC | 0.152 |
| GTCCCGAC | 0.182 |
| GCAGAAGC | 0.195 |

Study 4
Target: ATF3, bZIP domain (human)
Method: DHFR protein complementation
Medium: yeast
Notes: single substitutions, most at no-binding floor
Reference: wild-type JUN-FOS pair
Reading: higher = stronger binding
Starting sequence: JUN, bZIP domain (human); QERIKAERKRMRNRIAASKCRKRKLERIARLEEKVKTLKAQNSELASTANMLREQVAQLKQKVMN; partner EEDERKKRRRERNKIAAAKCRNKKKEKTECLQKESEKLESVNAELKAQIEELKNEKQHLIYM
| Change | binding fitness [natural log] |
| --- | --- |
| L31P | -1.19 |
| K34Q | -0.328 |
| A49H | -0.346 |
| N42A | -0.508 |
| L59S | -1.22 |
| A49Q | -0.497 |
| T48L | -0.132 |
| S43Y | -0.112 |
| N42V | -1.1 |
| Q55M | -0.386 |
| R53P | -1.38 |
| A57E | -0.0296 |
| R30V | 0.0889 |
| M51R | -0.0932 |
| R30N | -0.156 |
| L31T | -0.745 |
| L38E | -0.937 |
| A29L | -0.387 |
| K39E | -0.309 |

Study 5
Target: Fragile X messenger ribonucleoprotein 1, C-terminal low-complexity region (Fmr1, Mus musculus, UniProt P35922)
Method: RNA Bind-n-Seq
Molecule type: RNA
Medium: in vitro
Tested at: 200 nM
Notes: whole 134-nt RNA, ends assumed
With: 150 mM LiCl
Reference: input library
Reading: higher = stronger binding
All molecules: 7-deaza-guanosine replaces G
| Sequence | log2 enrichment |
| --- | --- |
| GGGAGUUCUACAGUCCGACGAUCCUCAAGUCCUGUGCUACACAUCGUAUGUACCGAAUCGGGGAAGGGGAAGGAAGGAAAGUAUUAUGUUACGCCGUUCGGAUCUGCACUUCCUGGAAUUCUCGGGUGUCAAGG | -1.13 |
| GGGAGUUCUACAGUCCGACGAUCGCAGGAAGUAAAAACAAAUGGAAAUGCUUCGGAUAGUGGCAGGGGUGGGGGUUGCUAAGGAAAGGGUGGGAUGGGAGUGUGUAAAGAGUUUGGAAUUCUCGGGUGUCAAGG | 1.41 |
| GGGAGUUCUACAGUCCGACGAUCAAGUCCUGUGCUACACAUCGUAUGUACCGAAUCGGGUUUGGGAGGGAAAAAAAGGGAAAGUAUUAUGUUACGCCGUUCGGAUCUGCACUUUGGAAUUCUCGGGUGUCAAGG | -0.317 |
| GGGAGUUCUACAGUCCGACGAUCUGGCCCUGGUGGCAUGCGGGGAGGAAGAGGUGGCCGCAUGGAUCGUGGUGGUCCCGGUGGAAUGUUCAGAGGUGGCCGUGGUGGAGACAGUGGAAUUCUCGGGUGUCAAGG | 1.14 |
| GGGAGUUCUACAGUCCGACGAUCGCAGGAAGUAAAAACAAAUGGAAAUGCUUCGGAUAGUGGCAGGGGUGGGGGUUGCCAAGGAAAGGGUGGGAUGGGAGUGGGUAAAGAGUUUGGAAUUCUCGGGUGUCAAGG | 1.18 |
| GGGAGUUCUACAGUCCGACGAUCUCCUGUGCUACACAUCGUAUGUACCGAAUCGGUUUUUUUGGAAAAAAAGGUUUUUUUGGAAAGUAUUAUGUUACGCCGUUCGGAUCUGCAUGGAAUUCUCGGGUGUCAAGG | -2.76 |
| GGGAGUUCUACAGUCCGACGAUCAAGUCCUGUGCUACACAUCGUAUGUACCGAAUCGGGUUUUUUUGGGAAAGGGUGGGAAAGUAUUAUGUUACGCCGUUCGGAUCUGCACUUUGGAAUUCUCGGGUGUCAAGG | -1.87 |
| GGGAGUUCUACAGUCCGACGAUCUGGCCCUGGUGGCAUGCGGGGAGGAAGAGGUGGCCUCAUGGUUCGUGGUGGUCCCGGUGGAAUGUUCAGAGGUGGCCGUGGUGGAGACAGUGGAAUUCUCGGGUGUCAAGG | -0.22 |
| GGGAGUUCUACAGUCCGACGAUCUCAAGUCCUGUGCUACACAUCGUAUGUACCGAAUCGGUUUGGAGGAAAAAAAGGAAAGUAUUAUGUUACGCCGUUCGGAUCUGCACUUCCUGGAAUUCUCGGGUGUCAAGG | -0.736 |
| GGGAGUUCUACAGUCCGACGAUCCCUGUGCUACACAUCGUAUGUACCGAAUCGGGGUUUUUUUGGGGAAAAAAAGGGGUGGGGAAAGUAUUAUGUUACGCCGUUCGGAUCUGCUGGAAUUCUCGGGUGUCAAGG | -1.35 |
| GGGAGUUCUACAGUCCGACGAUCGCAGGAAGUAAAAACAAAUGGAAAUGCUUCGGAUAGUGGCAGGGGUGGGGGUUGCUAAGGAAAGGGUGGGAUGGGAGUGGGUAACGAGUUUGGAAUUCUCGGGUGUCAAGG | 1.76 |

Repeated from above (study 3):
| Sequence | E-score |
| --- | --- |
| TAACACGA | 0.0891 |
| ATTCCGAC | 0.111 |
| ACGGGTAG | -0.00286 |
| CCAGCGTA | 0.115 |
| ATATACAG | -0.0139 |
